# Published values gathered from unrelated publications.
# Numbered parts are unrelated; each lists some results of a single study.
# Chain of UniProt Q15208 (whole entry, looked up): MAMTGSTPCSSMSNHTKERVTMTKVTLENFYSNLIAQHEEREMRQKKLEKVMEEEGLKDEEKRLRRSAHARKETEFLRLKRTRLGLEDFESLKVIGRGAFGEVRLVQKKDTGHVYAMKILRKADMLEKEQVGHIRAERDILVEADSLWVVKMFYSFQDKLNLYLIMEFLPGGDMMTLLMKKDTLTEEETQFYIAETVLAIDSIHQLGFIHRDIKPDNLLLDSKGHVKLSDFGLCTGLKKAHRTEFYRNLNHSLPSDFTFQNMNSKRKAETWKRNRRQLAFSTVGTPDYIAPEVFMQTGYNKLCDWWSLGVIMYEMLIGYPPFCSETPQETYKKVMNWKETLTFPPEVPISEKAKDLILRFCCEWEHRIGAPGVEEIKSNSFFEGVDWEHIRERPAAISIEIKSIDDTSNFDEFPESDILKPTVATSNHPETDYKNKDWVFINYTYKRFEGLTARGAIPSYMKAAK
# Chain of UniProt P48729 (whole entry, looked up): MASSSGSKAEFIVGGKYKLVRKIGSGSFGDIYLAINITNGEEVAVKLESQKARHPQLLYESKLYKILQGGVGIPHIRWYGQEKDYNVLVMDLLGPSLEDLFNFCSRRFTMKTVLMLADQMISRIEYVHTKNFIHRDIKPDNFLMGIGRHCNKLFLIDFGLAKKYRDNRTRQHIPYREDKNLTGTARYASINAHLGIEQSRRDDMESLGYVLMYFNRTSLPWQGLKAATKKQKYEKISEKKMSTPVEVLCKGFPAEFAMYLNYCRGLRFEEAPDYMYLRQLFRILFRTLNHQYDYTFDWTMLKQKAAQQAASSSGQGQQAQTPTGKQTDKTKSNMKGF
# Chain of UniProt Q05655 (whole entry, looked up): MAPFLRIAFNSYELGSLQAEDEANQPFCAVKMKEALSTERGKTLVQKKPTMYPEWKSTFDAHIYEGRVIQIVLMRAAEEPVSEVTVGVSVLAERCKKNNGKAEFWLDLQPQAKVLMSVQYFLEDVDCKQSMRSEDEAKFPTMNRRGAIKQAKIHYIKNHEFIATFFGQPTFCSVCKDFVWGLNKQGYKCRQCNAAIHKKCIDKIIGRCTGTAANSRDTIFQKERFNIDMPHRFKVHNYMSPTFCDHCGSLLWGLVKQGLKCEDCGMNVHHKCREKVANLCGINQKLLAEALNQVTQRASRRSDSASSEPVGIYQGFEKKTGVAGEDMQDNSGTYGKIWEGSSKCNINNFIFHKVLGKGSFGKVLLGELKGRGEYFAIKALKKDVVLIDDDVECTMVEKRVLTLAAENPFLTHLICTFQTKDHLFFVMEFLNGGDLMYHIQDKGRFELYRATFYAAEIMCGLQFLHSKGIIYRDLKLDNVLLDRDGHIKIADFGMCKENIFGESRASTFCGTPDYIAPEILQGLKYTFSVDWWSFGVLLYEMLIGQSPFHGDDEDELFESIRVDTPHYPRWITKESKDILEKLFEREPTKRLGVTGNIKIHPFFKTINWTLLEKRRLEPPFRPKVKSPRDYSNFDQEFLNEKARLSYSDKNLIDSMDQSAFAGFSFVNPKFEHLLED
# Chain of UniProt P49759 (whole entry, looked up): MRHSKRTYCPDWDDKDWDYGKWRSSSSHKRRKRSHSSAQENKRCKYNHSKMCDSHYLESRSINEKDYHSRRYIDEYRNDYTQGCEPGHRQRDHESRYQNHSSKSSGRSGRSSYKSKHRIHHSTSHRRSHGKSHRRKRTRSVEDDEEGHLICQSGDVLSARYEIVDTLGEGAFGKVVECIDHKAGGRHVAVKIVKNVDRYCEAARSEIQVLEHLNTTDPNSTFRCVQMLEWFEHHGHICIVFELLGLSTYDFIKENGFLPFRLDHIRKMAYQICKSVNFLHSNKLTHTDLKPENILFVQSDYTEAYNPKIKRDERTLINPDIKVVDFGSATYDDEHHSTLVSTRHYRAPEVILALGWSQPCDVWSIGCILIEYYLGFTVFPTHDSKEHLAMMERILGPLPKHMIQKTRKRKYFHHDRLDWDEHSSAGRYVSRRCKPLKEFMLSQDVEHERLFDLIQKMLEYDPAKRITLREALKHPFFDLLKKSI
# Chain of UniProt Q9Y4K4 (whole entry, looked up): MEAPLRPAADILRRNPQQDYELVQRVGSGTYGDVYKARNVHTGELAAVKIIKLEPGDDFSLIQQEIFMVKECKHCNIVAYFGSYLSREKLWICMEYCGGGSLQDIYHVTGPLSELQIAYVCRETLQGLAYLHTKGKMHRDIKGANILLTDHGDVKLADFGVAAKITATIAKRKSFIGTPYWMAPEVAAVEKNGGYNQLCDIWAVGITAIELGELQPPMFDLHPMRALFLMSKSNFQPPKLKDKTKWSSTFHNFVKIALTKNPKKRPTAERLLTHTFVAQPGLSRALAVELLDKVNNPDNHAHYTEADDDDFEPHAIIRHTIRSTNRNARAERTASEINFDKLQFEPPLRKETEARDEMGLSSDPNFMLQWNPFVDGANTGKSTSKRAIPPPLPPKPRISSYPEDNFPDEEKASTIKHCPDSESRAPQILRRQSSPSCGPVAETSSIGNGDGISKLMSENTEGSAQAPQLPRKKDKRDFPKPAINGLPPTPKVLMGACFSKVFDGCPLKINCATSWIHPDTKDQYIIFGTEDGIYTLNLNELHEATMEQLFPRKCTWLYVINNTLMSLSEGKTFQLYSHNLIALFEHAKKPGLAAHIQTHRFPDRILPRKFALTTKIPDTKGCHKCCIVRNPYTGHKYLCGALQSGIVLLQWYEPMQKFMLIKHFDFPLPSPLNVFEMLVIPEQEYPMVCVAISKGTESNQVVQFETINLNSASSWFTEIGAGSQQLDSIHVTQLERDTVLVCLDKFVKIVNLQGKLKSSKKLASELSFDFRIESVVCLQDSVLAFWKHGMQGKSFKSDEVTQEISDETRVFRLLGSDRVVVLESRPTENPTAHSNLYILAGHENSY

# Series 1
# Target: Tyrosine-protein kinase CSK (CSK, Homo sapiens, UniProt P41240)
# Chain of UniProt P41240 (whole entry, looked up): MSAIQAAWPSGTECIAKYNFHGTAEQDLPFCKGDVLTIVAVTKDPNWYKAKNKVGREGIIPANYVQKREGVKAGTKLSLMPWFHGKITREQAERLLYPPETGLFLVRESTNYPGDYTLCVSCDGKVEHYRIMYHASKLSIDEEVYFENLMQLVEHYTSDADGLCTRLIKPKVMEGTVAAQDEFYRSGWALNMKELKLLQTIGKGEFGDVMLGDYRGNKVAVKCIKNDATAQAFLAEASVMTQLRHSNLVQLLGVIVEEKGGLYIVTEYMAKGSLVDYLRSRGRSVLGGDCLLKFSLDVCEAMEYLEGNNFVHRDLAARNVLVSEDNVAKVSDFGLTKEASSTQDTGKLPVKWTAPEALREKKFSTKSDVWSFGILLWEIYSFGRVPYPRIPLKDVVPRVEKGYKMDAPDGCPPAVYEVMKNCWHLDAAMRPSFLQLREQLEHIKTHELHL
# Effect on: enzyme activity
# Action: inhibitor
# Concentration: 0.5 µM
# Reference: control
SMILES,remaining activity [%]
Nc1[nH]nc2nc3ccccc3nc12,100
COc1ccc(CNC(=O)Nc2ncc([N+](=O)[O-])s2)cc1,102
O=C(Nc1cccc(Nc2cc(Nc3cccc(C(F)(F)F)c3)ncn2)c1)C1CC1,102
O=c1c2ccccc2[nH]c(=S)n1CCN1CCC(=C(c2ccc(F)cc2)c2ccc(F)cc2)CC1,119
Cc1ccc(NC(=O)c2ccc(CN3CCN(C)CC3)cc2)cc1Nc1nc(-c2cccnc2)cs1,104
O=C1NC(=O)C(c2cn(CCCO)c3ncccc23)=C1c1cnccn1,86.9
O=C(O)c1ccc2c3c1cccc3c(=O)n1c3ccccc3nc21,101
O=C1NC(=O)C(c2cn(CCCn3ccnc3)c3ccccc23)=C1Nc1ccccc1,110
COc1ccc(C(=O)Nc2sc3c(c2C(N)=O)CCCC3)cc1OC,98.8
COc1cc2ncnc(Nc3ccc(F)c(Cl)c3)c2cc1OCCCN1CCOCC1,95.4
NCCNc1ncc(C(N)=O)c(Nc2cccc(C(F)(F)F)c2)n1,92.8
OCC(O)CCON=C1C(c2c(O)[nH]c3ccccc23)=Nc2ccccc21 (stereo not drawn),86.3
COc1cc2nccc(Oc3ccc(NC(=S)NC(=O)c4ccccc4C)cc3)c2cc1OC,75.3
CCOC(=O)c1c(C)[nH]c(/C=C2\C(=O)Nc3ccccc32)c1C,104
CC(C)[C@H](CO)Nc1nc(Nc2cc(N)cc(Cl)c2)c2ncn(C(C)C)c2n1,79.3

# Series 2
# Organism: Sarcocystis neurona
# Effect on: parasite growth
# Concentration: 10 µM
# Time: 96 h
# Notes: second screen
# Reference: untreated
SMILES,log2 fold change
O=C(O)C[C@H](O)C[C@H](O)/C=C/c1c(C2CC2)nc2ccccc2c1-c1ccc(F)cc1,0.12
Clc1ccccc1C(c1ccccc1)(c1ccccc1)n1ccnc1,-1.09
Cc1cc2c(s1)Nc1ccccc1N=C2N1CCN(C)CC1,0.3

# Series 3
# SMILES: CC(=O)N[C@@H](Cc1c[nH]c2ccccc12)C(=O)N[C@@H](CCC(=O)C=[N+]=[N-])C(=O)OC(C)C
# Medium: EL4 tumour
# Dose: dose not given
# Reference: vehicle
method,item,host,log2 fold change
,stachydrine,"mouse, EL4 tumour-bearing",-0.204
,N-acetylarginine,"mouse, EL4 tumour-bearing",-0.0245
,2-phosphoglycerate,"mouse, EL4 tumour-bearing",0.714
metabolomics,AICA ribonucleotide,mouse,-0.349

# Series 4
# Compound: O=C(Nc1cccnn1)N1CCC(=Cc2cccc(Oc3ccc(C(F)(F)F)cn3)c2)CC1
# Effect on: cell-free assay
# Method: competition with immobilised ligand
# Concentration: 1 µM
target,remaining binding
"STK38 (Homo sapiens, UniProt Q15208)",100%
"CLK1 (Homo sapiens, UniProt P49759)",95%
"CSNK1A1 (Homo sapiens, UniProt P48729)",100%
"MAP4K5 (Homo sapiens, UniProt Q9Y4K4)",100%
"EGFR (Homo sapiens, UniProt P00533, L861Q)",84%
"PRKCD (Homo sapiens, UniProt Q05655)",93%

# Series 5
# Host: human
# Medium: microsomes or S9
# Concentration: 2 µM
# Time: 0.5 h
SMILES,remaining compound [%]
CC(C)COc1ccc(Cc2cnc(N)nc2N)cc1,18.4
Cc1sc2c(c1C)c1nnc(SCCN(C)C)n1c1nnc(SCCN(C)C)n21,57.4
COc1cc2c(cc1OC)/C(=N\c1ccccc1)N(Cc1ccccc1F)CC2,3.2
O=C(C1CCc2n[nH]c(=O)n2C1)N1CCc2ccc(F)c(F)c2C1 (stereo not drawn),93.8

# Mixed results
SMILES,method,host,dose,notes,measurement,value
CC(C)n1cnc(-c2ccc(F)cc2)c1-c1ncc(C(=O)Nc2ccc(N3CCN(C)CC3)cc2)[nH]1,phase 2a clinical trial,patients with idiopathic pulmonary fibrosis,30 mg once daily,without standard of care,patients with ALT increase,0%
